Results pooled from the literature.
Numbered parts are unrelated; each lists some results of a single study. Positions count from the first letter of the parent shown.
UniProt P53355, sequence (whole entry, looked up): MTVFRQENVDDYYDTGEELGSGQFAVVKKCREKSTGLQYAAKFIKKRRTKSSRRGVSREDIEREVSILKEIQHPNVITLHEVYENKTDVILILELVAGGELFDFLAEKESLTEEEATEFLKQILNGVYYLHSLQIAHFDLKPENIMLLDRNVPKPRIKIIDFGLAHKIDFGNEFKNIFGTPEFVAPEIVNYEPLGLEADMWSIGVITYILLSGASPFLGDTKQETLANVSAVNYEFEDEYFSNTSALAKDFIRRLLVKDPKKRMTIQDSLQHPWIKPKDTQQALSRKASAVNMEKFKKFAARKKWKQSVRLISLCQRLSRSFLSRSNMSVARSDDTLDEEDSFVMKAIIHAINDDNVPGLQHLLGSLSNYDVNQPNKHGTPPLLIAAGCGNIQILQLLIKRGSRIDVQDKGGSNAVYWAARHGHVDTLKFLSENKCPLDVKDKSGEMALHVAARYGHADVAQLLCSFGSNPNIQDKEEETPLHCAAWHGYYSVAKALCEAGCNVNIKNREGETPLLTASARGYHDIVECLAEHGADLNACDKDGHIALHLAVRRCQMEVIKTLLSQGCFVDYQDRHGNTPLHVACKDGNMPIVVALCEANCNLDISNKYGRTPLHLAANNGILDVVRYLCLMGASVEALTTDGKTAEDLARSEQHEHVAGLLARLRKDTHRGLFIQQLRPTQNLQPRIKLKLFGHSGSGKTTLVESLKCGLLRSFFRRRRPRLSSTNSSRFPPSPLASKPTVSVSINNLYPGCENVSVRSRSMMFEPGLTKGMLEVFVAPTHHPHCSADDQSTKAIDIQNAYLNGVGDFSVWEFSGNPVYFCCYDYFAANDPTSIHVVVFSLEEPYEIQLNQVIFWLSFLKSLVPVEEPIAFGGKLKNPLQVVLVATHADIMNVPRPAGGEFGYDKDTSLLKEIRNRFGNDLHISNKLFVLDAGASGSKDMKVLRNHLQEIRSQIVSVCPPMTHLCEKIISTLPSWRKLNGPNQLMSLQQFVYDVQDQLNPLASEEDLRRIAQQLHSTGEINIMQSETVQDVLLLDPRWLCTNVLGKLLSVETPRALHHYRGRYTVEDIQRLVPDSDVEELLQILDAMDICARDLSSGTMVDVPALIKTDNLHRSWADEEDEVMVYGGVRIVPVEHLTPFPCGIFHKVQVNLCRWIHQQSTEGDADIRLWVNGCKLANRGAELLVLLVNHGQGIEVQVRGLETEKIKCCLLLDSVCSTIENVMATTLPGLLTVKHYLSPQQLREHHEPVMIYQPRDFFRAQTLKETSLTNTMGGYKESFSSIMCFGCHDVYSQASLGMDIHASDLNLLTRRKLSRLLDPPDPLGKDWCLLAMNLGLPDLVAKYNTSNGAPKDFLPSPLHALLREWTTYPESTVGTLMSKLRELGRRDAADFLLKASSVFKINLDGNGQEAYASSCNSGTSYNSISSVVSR
UniProt Q99759, sequence (whole entry, looked up): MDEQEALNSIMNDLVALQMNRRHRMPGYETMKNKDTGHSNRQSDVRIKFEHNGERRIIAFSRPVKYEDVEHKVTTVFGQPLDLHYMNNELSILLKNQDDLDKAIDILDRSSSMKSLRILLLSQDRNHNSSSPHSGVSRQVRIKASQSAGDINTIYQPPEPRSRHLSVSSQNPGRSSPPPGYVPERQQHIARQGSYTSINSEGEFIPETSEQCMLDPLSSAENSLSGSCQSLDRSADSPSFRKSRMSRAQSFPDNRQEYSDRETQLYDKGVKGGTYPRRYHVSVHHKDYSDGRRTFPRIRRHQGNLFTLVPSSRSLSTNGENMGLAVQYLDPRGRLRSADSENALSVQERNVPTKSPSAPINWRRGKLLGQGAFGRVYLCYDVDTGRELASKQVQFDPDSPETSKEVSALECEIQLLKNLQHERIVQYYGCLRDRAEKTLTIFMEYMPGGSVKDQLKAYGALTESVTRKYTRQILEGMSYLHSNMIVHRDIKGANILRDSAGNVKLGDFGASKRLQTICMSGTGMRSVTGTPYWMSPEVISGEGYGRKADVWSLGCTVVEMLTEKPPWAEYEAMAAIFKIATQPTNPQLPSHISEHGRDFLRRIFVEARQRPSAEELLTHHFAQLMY
UniProt P51955, sequence (whole entry, looked up): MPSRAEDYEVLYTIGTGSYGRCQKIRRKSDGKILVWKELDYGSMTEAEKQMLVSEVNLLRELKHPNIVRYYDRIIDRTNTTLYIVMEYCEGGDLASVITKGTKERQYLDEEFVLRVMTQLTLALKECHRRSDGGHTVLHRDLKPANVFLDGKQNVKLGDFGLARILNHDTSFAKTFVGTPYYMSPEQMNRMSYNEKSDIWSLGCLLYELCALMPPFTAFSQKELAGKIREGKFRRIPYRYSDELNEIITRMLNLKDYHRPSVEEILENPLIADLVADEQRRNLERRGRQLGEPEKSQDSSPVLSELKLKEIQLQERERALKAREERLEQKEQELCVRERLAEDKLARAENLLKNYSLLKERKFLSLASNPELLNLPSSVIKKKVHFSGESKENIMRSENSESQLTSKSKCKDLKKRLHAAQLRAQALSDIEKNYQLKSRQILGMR
UniProt Q9Y3S1, sequence (whole entry, looked up): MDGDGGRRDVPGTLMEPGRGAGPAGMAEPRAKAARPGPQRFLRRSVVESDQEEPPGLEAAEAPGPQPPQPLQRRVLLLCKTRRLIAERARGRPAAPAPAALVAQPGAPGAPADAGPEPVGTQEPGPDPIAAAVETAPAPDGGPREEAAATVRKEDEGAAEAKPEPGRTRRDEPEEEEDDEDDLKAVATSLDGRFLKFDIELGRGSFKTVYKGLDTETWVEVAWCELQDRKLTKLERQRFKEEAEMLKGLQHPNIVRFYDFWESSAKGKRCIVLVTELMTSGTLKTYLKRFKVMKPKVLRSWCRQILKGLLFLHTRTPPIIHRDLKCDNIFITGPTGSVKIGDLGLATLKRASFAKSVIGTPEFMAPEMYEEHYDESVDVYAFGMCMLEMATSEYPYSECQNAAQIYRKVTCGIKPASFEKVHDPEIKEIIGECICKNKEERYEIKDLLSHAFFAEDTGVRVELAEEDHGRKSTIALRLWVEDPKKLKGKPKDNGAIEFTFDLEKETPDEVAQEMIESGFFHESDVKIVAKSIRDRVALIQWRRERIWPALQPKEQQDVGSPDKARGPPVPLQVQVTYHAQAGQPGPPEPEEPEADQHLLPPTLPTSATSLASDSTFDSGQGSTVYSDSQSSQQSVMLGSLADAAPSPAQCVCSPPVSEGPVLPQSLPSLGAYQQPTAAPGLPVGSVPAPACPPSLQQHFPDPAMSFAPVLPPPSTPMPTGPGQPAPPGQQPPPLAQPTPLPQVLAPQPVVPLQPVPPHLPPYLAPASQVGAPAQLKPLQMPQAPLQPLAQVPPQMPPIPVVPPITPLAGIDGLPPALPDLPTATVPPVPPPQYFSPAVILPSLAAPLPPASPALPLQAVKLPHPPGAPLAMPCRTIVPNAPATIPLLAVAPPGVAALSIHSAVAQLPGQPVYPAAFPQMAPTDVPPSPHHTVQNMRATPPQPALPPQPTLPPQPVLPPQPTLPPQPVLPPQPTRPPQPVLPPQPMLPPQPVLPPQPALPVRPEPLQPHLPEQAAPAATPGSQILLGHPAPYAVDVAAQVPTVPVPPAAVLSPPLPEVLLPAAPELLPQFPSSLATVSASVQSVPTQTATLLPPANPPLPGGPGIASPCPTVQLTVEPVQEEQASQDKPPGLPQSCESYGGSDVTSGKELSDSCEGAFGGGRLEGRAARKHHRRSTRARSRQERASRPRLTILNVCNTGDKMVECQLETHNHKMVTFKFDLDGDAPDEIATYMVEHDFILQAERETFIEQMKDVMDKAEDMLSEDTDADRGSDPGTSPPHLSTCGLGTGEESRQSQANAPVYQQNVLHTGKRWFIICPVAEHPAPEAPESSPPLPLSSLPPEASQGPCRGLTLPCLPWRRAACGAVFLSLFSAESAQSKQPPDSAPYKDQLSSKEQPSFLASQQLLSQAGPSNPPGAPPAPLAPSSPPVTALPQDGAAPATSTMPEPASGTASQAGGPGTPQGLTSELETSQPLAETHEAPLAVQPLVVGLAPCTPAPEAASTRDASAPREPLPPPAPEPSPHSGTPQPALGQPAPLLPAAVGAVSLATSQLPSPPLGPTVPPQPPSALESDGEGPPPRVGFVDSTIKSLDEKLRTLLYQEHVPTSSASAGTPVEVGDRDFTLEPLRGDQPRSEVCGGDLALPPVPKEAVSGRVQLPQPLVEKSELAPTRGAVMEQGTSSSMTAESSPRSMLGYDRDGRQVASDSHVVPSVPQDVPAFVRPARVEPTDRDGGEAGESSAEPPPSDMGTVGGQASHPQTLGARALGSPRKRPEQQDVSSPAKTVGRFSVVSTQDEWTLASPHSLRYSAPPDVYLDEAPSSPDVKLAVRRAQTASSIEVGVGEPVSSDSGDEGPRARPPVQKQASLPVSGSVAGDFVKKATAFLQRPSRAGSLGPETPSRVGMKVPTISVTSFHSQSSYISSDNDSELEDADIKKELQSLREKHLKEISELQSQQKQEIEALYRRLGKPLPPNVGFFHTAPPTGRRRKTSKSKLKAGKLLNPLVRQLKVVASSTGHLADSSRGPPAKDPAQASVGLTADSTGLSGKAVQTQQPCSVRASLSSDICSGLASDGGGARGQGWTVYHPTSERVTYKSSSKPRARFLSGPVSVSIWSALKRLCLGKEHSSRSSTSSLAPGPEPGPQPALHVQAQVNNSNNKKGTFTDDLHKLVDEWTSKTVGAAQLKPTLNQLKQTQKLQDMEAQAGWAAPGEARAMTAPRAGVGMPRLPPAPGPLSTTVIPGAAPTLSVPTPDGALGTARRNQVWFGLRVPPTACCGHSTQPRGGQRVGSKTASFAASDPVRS

Study 1 — read-out: cell-free assay; technique: competition with immobilised ligand; concentration: 1 µM
SMILES: C[C@@]1(Cc2ccc(C#N)cc2)C(=O)N(c2cc(Cl)cc(Cl)c2)c2ncc(C(=O)NC3(c4nc(C5CCC5)no4)CC3)n21
| target | remaining binding |
| --- | --- |
| TAOK2 (Homo sapiens, UniProt Q9UL54) | 100% |
| Ribosomal protein S6 kinase alpha-1, C-terminal kinase domain (RPS6KA1, Homo sapiens, UniProt Q15418) | 100% |
| EPHA3 (Homo sapiens, UniProt P29320) | 83% |
| WNK2 (Homo sapiens, UniProt Q9Y3S1) | 100% |

Study 2 — read-out: enzyme activity; mode: inhibitor; concentration: 0.5 µM; reference: control
SMILES: CC(C)c1nn(-c2c(Cl)cccc2Cl)c2nc(Cc3ccc(OCCO)cc3)[nH]c(=O)c12
| target | remaining activity |
| --- | --- |
| MAP3K3 (Homo sapiens, UniProt Q99759) | 110% |
| NEK2 (Homo sapiens, UniProt P51955) | 97.7% |
| DAPK2 (Homo sapiens, UniProt Q9UIK4) | 88.3% |
| DAPK1 (Homo sapiens, UniProt P53355) | 99.5% |
| MAPK9 (Homo sapiens, UniProt P45984) | 96.5% |
| Protein kinase C beta type, isoform beta-I (PRKCB, Homo sapiens, UniProt P05771) | 101% |
| CAMKK2 (Homo sapiens, UniProt Q96RR4) | 90.9% |
| PRKCA (Homo sapiens, UniProt P17252) | 89.9% |
| Tyrosine-protein kinase Lyn, isoform B (LYN, Homo sapiens, UniProt P07948) | 92.7% |
| STK39 (Homo sapiens, UniProt Q9UEW8) | 99.9% |
| PRKACA (Homo sapiens, UniProt P17612) | 99.8% |
| OXSR1 (Homo sapiens, UniProt O95747) | 93.8% |

Study 3 — target: CEP164, C-terminal peptide (human); technique: DHFR complementation, deep sequencing; sample: yeast; reference: wild type; reading: higher = weaker binding
Notes: single substitutions, model-inferred values
Starting sequence: PDZK1, PDZ domain 2 (human); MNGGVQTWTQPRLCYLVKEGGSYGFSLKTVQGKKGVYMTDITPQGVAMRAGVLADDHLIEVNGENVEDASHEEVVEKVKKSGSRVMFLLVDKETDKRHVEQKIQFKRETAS; partner HNRVKVYRF
| Change | binding free energy change [kcal/mol] |
| --- | --- |
| T42K | 0.314 |
| M38Q | 1.37 |
| G82I | 0.77 |
| R49T | 0.322 |
| I41T | 0.991 |
| G3C | -0.00606 |
| V66M | 0.222 |
| Q101F | -0.0103 |

Study 4 — technique: Sort-seq; measured: YFP reporter; sample: E. coli; notes: PhoQ-PhoP variant library; with: 10 µM Mg2+; reference: high Mg2+ state; reading: higher = stronger signaling
Molecule: PhoQ, residues 284 288 289 292 302 303 TLSLKA
| target | fold induction |
| --- | --- |
| PhoP, residues 12 14 15 18 19 AYFRS (Escherichia coli, UniProt P23836) | 2.79 |
| PhoP, residues 12 14 15 18 19 SFCSL (Escherichia coli, UniProt P23836) | 9.78 |
| PhoP, residues 12 14 15 18 19 HHYTI (Escherichia coli, UniProt P23836) | 10.1 |

A few entries again (study 2):
| target | remaining activity |
| --- | --- |
| MAP3K3 (Homo sapiens, UniProt Q99759) | 110% |
| NEK2 (Homo sapiens, UniProt P51955) | 97.7% |
| DAPK2 (Homo sapiens, UniProt Q9UIK4) | 88.3% |
| DAPK1 (Homo sapiens, UniProt P53355) | 99.5% |
